Experimental data of several laboratories.
Values joined by “and” are separate records of one study, mostly repeats; a detail may differ. ± gives the spread as reported.
Fibroin-modulator-binding protein-1: Fibroin-modulator-binding protein-1 99-193 (Bombyx mori, UniProt Q5FBS0)

Substance	target or system	test	system	conditions	scale	quantity	result
GGGAGAACUUCGACCAGAAGUCCUAAGAUGCGUUAACAUUACGUAAGAAUCUACCUACCUAUGUGCGCAUACAUGGAUCCUC (ssRNA; 2'-fluoro pyrimidines)	integrin alphaV/beta3 31-992/27-718 (Homo sapiens)	SPR	RNA	together with: MnCl2 1 mM	higher = more binding	relative binding	3.5 RU
SLLEWISQV	Jurkat T cells expressing 1G4 TCR	NFAT-eGFP reporter, flow cytometry	peptide	concentration not given, HLA-A*02:01 NY-ESO system		reporter activation	0.25%
GGGAGAACUUCGACCAGAAGUAGCUCCGCGCGCACGUUACGCGAAAACGUUCUGCCCGCCUAUGUGCGCAUACAUGGAUCCUC (ssRNA; 2'-fluoro pyrimidines)	integrin alphaV/beta3 31-992/27-718 (Homo sapiens)	SPR	RNA	together with: MnCl2 1 mM	higher = more binding	relative binding	153 RU
TASPAKETSF	human SCRIB PDZ3-4 tandem (MBP fusion)	automated holdup	peptide, crude extract	concentration not given, corrected by standard peak, unit not given	baseline: biotin control resin, higher = stronger binding	binding intensity	0.774
GLLQWVSVV	Jurkat T cells expressing 1G4 TCR	NFAT-eGFP reporter, fluorescence microscopy	peptide	concentration not given, HLA-A*02:01 NY-ESO system		reporter activation	0.0116%
QDEKVKESYV	human SCRIB PDZ3-4 tandem (MBP fusion)	automated holdup	peptide, crude extract	concentration not given, corrected by standard peak, unit not given	baseline: biotin control resin, higher = stronger binding	binding intensity	0.718
colistin	Pseudomonas aeruginosa	broth microdilution	clinical isolate RKI-No_693/15			MIC	1 µg/mL
difelikefalin			Japanese haemodialysis patients with pruritus	intravenous, 0.5 µg/kg, 8 weeks		PGIC very much worse	0%
LVHYTHCGSLGV	Epstein-Barr virus	BamHI-W qPCR	peptide, B-NDG humanized mouse, EBV-infected, peripheral blood	20 mg/kg, day 14		EBV DNA copy number	0 copies
CCT3		co-immunoprecipitation	human RBC membrane	DSSO crosslinker, unit not given, together with: Band 3 peptide 1-56 bait	baseline: negative control	co-IP enrichment	239
milbemycin oxime	Saccharomyces cerevisiae	cell growth	Pdr5 deleted, Cdr1 overexpressed	2^-4.381 µg/mL, together with: fluconazole 10 µg/mL		OD600	0.039 and 0.041
GEMVGQARILAQATSDLVNAIKDA	vinculin head domain Vd1	complex rupture, AFM single-molecule force spectroscopy	peptide	single traces, N-terminal pulling, 800 nm/s		rupture force FWHM lower side	12.6 pN
CCT4		co-immunoprecipitation	human RBC cytosol	DMTMM crosslinker, unit not given, together with: Band 3 peptide 1-56 bait	baseline: negative control	co-IP enrichment	1270
CTCATACAGT	Salmonella enterica Typhimurium	RNA-seq, measured: pagN	peptide, SL1344	5 µM, 15 min	baseline: water	log2 fold change	2.56
human serum albumin		co-immunoprecipitation	human plasma	unit not given, together with: Band 3 peptide 1-56 bait	baseline: negative control	co-IP enrichment	33.3
SVWLRKETRV	human SCRIB PDZ3-4 tandem (MBP fusion)	automated holdup	peptide, purified PDZ protein	concentration not given, unit not given	baseline: biotin control resin, higher = stronger binding	binding intensity	0.632
IMQLMPFGCLL	HLA class I histocompatibility antigen, A alpha chain, allele A*01:01 (Homo sapiens, UniProt P04439)	conformational ELISA	peptide	concentration not given	baseline: positive control peptide, direction not given	binding score	0.5%
SLLQWTTQV	Jurkat T cells expressing 1G4 TCR	NFAT-eGFP reporter, flow cytometry	peptide	concentration not given, HLA-A*02:01 NY-ESO system		reporter activation	68.7%
CCT6A		co-immunoprecipitation	human RBC cytosol	DSSO crosslinker, unit not given, together with: Band 3 peptide 1-56 bait	baseline: negative control	co-IP enrichment	3670
QGRWDHETIV	human MAGI1-2/6 PDZ construct (MBP fusion)	surface plasmon resonance	peptide	concentration not given	higher = stronger binding	normalised SPR binding response	0 normalised RU
GLLEWISLV	Jurkat T cells expressing 1G4 TCR	NFAT-eGFP reporter, flow cytometry	peptide	concentration not given, HLA-A*02:01 NY-ESO system		reporter activation	0.17%
GSGAGSETSV	human MAGI1-2/6 PDZ construct (MBP fusion)	automated holdup	peptide, crude extract	concentration not given, corrected by standard peak, unit not given	baseline: biotin control resin, higher = stronger binding	binding intensity	0.162

Substance	target or system	test	system	conditions	scale	quantity	result
ILEAAKSIAAATSALVKAASAAQRE	vinculin head domain Vd1	complex rupture, AFM single-molecule force spectroscopy	peptide	single traces, C-terminal pulling, 800 nm/s		rupture force FWHM upper side	13.8 pN
cotadutide			C57BL/6J mouse, AMLN diet NASH model	dose not given, terminal		plasma triglycerides	72 ± 5 mg/dL
Peginesatide	UT7/EPO	microarray, measured: RAB11FIP1 mRNA (probe set 225177_at)		20 nM, 90 min	baseline: vehicle	mRNA level	3.4 fold
GLGQWISRA	Jurkat T cells expressing 1G4 TCR	NFAT-eGFP reporter, flow cytometry	peptide	concentration not given, HLA-A*02:01 NY-ESO system		reporter activation	0.13%
ERK2		co-immunoprecipitation	human plasma	no crosslinker, unit not given, together with: Band 3 peptide 1-56 bait	baseline: negative control	co-IP enrichment	0
epoetin alfa	UT7/EPO	microarray, measured: CISH mRNA (probe set 223961_s_at)		5 U/mL, 90 min	baseline: vehicle	mRNA level	12.9 fold
ALMTWVTQV	Jurkat T cells expressing 1G4 TCR	NFAT-eGFP reporter, flow cytometry	peptide	concentration not given, HLA-A*02:01 NY-ESO system		reporter activation	62%
human immunoglobulin gamma-1 constant		co-immunoprecipitation	human RBC membrane	DMTMM crosslinker, unit not given, together with: Band 3 peptide 1-56 bait	baseline: negative control	co-IP enrichment	0
GSGAGHETIV	human SCRIB PDZ3-4 tandem (MBP fusion)	automated holdup	peptide, purified PDZ protein	concentration not given, unit not given	baseline: biotin control resin, higher = stronger binding	binding intensity	0.517
CTCATACTGA	Salmonella enterica Typhimurium	RNA-seq, measured: fabF mRNA	peptide, SL1344	5 µM, 15 min	baseline: water control	log2 fold change	-1.91
human retinal dehydrogenase 1		co-immunoprecipitation	human plasma	unit not given, together with: Band 3 peptide 1-56 bait	baseline: negative control	co-IP enrichment	0
GAAAGAAAGAAA (dsDNA)	Fibroin-modulator-binding protein-1	ITC	double-stranded DNA, one strand shown			Kd	2.94 ± 0.334 µM
VQLIMQLMPF	HLA class I histocompatibility antigen, A alpha chain, allele A*24:02 (Homo sapiens, UniProt P04439)	conformational ELISA	peptide	concentration not given	baseline: positive control peptide, direction not given	binding score	39.2%
human clusterin		co-immunoprecipitation	human plasma	no crosslinker, unit not given, together with: Band 3 peptide 1-56 bait	baseline: negative control	co-IP enrichment	432000
ACGCACGCACGC (dsDNA)	Fibroin-modulator-binding protein-1	ITC	double-stranded DNA, one strand shown			Kd	6.83 µM
Polymyxin B	Staphylococcus aureus	DiSC3(5) fluorescence		concentration not given, 54 min	higher = more depolarisation	membrane depolarisation	520 a.u. and 577 a.u. and 725 a.u.
MTVCNASQRQAHAQATAVSL	HCC95 lung squamous carcinoma	phage binding output/input	peptide		baseline: control phage	selectivity ratio	2.9 ± 1.1
WLPFGFILI	HLA class I histocompatibility antigen, A alpha chain, allele A*02:01 (Homo sapiens, UniProt P04439)	peptide-MHC stability, brefeldin A chase	peptide, T2 cells			complex half-life	59.4 min
RLAQWISQA	Jurkat T cells expressing 1G4 TCR	NFAT-eGFP reporter, fluorescence microscopy	peptide	concentration not given, HLA-A*02:01 NY-ESO system		reporter activation	8.58%
KDECVIATEV	human SCRIB PDZ3-4 tandem (MBP fusion)	automated holdup	peptide, crude extract	concentration not given, corrected by standard peak, unit not given	baseline: biotin control resin, higher = stronger binding	binding intensity	0.26
GLLEWTDRV	Jurkat T cells expressing 1G4 TCR	NFAT-eGFP reporter, fluorescence microscopy	peptide	concentration not given, HLA-A*02:01 NY-ESO system		reporter activation	0.00918%
GSGAGKETSF	human SCRIB PDZ3-4 tandem (MBP fusion)	automated holdup	peptide, purified PDZ protein	concentration not given, unit not given	baseline: biotin control resin, higher = stronger binding	binding intensity	0.834

For quick reference, copied from above:
Substance	target or system	test	system	conditions	scale	quantity	result
SVWLRKETRV	human SCRIB PDZ3-4 tandem (MBP fusion)	automated holdup	peptide, purified PDZ protein	concentration not given, unit not given	baseline: biotin control resin, higher = stronger binding	binding intensity	0.632
IMQLMPFGCLL	HLA class I histocompatibility antigen, A alpha chain, allele A*01:01 (Homo sapiens, UniProt P04439)	conformational ELISA	peptide	concentration not given	baseline: positive control peptide, direction not given	binding score	0.5%
SLLQWTTQV	Jurkat T cells expressing 1G4 TCR	NFAT-eGFP reporter, flow cytometry	peptide	concentration not given, HLA-A*02:01 NY-ESO system		reporter activation	68.7%
CCT6A		co-immunoprecipitation	human RBC cytosol	DSSO crosslinker, unit not given, together with: Band 3 peptide 1-56 bait	baseline: negative control	co-IP enrichment	3670
QGRWDHETIV	human MAGI1-2/6 PDZ construct (MBP fusion)	surface plasmon resonance	peptide	concentration not given	higher = stronger binding	normalised SPR binding response	0 normalised RU
GLLEWISLV	Jurkat T cells expressing 1G4 TCR	NFAT-eGFP reporter, flow cytometry	peptide	concentration not given, HLA-A*02:01 NY-ESO system		reporter activation	0.17%
